Results of several laboratories.
Each line is one published result; not all experiments were run side by side. Values joined by “and” are separate records of one study, mostly repeats; a detail may differ.

C=CC(=O)Nc1cccc(Cn2ncc3cnc(Nc4cnn(CCOC)c4)nc32)c1  half-life (metabolic stability; male beagle dog, hepatocytes): 0.444 h
CCCCCCCOc1ccc(CC[C@](N)(CO)COP(=O)(O)O)cc1C(F)(F)F  half-life (healthy human males, plasma; oral, 0.125 mg, day 21): 378 h
O=C(c1ccccc1)N1C(c2ccc(OCC3CCN(CCCF)C3)cc2)c2ccc(O)cc2CC12CC2 (centres unmarked)  half-life (C57BL/6J mouse, plasma; oral, 25 mg/kg): 3.16 h and 5.07 h
O=S(=O)(NCc1ccncc1)c1ccc(C2CCCCC2)cc1  half-life (C57BL/6J mouse, male, cerebral cortex; intraperitoneal, 0.3 mg/kg): 3.7 h
C=CC(=O)N1CCCC(n2c(=O)c3ncccc3n(Cc3ccc(Oc4ccccc4)cc3)c2=O)C1 (centres unmarked)  half-life (metabolic stability; male beagle dog, hepatocytes; 1 µM): 0.813 h
C[C@]12C[C@H](c3ccc(S(C)(=O)=O)cc3)C3=C4CCC(=O)C=C4CC[C@H]3[C@@H]1CC[C@@]2(O)C(F)(F)C(F)(F)F  half-life (human, plasma; oral, 5 mg multiple doses, day 28): 51.7 h
Cn1cnc([N+](=O)[O-])c1Sc1ccccc1C(=O)NCCC(N)=O  half-life (metabolic stability; cynomolgus monkey, blood; 1 µM, whole blood): 0.653 h
CCC(CC)CNC(=N)NC(=N)NCCCCCCNC(=N)NC(=N)NCC(CC)CC  half-life (metabolic stability; dog, hepatocytes; 1 µM): 2.53 h
CNC(=O)C1CCCN(C(=O)C2CC3CCC2N3C(=O)[C@@H]2C[C@@H](O)CN2C(=O)NCc2cccc(Cl)c2F)C1 (mixture of isomers)  half-life (metabolic stability; dog, liver microsomes): 3.88 h
[2H]C([2H])([2H])Oc1cc2c(cc1OC([2H])([2H])[2H])[C@H]1C[C@@H](O)[C@H](CC(C)C)CN1CC2  half-life (refers to: compound; human, male, plasma; oral, 25 mg [14C]-deutetrabenazine, geometric mean): 12.2 h
C/C(N)=N/C(=N\S(=O)(=O)c1ccc(C(F)(F)F)cc1)N1C[C@H](c2ccccc2)C(c2ccc(Cl)cc2)=N1  half-life (metabolic stability; dog, liver microsomes): > 2 h

For quick reference, copied from above:
Cn1cnc([N+](=O)[O-])c1Sc1ccccc1C(=O)NCCC(N)=O  half-life (metabolic stability; cynomolgus monkey, blood; 1 µM, whole blood): 0.653 h
